Experimental data pooled from the literature.
Protocols differ between the studies behind these lines. Values joined by “and” are separate records of one study, mostly repeats; a detail may differ. ± marks the error that the study gave.

CS(=O)(=O)n1cc2c(n1)CN([C@H]1CO[C@H](c3cc(F)ccc3F)[C@@H](N)C1)C2 has a Tmax of 3 h (healthy male human, plasma; oral, 10 mg once weekly, day 1, fasted, median).
The Tmax of COC(=O)c1ccc2c(c1)NC(=O)/C2=C(\Nc1ccc(N(C)C(=O)CN2CCN(C)CC2)cc1)c1ccccc1 is reported as 3.48 h (human, mild liver impairment, plasma; oral, 150 mg twice daily, steady state).
With C#C[C@]1(CO)O[C@@H](n2cnc3c(N)nc(F)nc32)C[C@@H]1O the Tmax was 1 h (human, plasma; oral, 100 mg once weekly, week 3).
With COc1cc(Nc2ncc3c(n2)-c2ccc(Cl)cc2C(c2c(F)cccc2OC)=NC3)ccc1C(=O)O the Tmax was 4.9 ± 3 h (human, phase I; oral, 30 mg single dose).
For CCOc1ccc(Cc2cc([C@@H]3S[C@H](CO)[C@@H](O)[C@H](O)[C@H]3O)c(OC)cc2C)cc1, the Tmax was 0.563 ± 0.177 h (human, plasma; oral, 10 mg/day, day 7, multiple dose before breakfast).
The Tmax of O=c1[nH]c(=O)c(Cc2cccc(C(F)(F)F)c2)c([C@H]2CC[C@H](c3ccccc3)CC2)[nH]1 is reported as 4 h (human, fasted, plasma; oral, 1500 mg single dose, median).
The Tmax of CC[C@@]1(O)C(=O)OCc2c1cc1n(c2=O)Cc2cc3c(CN(C)C)c(O)ccc3nc2-1 is reported as 1.25 h (human patients; oral, 4 mg, day 15, median, together with: pazopanib 800 mg).
The Tmax of C#C[C@]1(O)CC[C@H]2[C@@H]3CCc4cc(O)ccc4[C@H]3CC[C@@]21C is reported as 1.5 h (human female, plasma; oral, 35 µg, day 1, median, together with: norethindrone 1 mg).
CCOc1cc([C@@H](CS(C)(=O)=O)N2C(=O)c3cccc(NC(C)=O)c3C2=O)ccc1O[C@@H]1O[C@H](C(=O)O)[C@@H](O)[C@H](O)[C@H]1O has a Tmax of 5 h (healthy human controls, plasma; oral, 30 mg apremilast, matched to moderate impairment).
The Tmax of Cc1cccc(Cn2nc(C3CC3)c3c(NC(=O)c4cnc5cc(OCCN6CCN(C)CC6)ccn45)cccc32)n1 is reported as 2 h (human patients PDA, plasma; oral, 300 mg, cycle 1 day 1, median).
N[C@@H](Cc1ccc(O)c(O)c1)C(=O)O has a Tmax of 0.167 h and 0.25 h (dry-powder inhaler; human, plasma; inhalation, 60 mg).
With CC(C)n1nc(-c2ccc3oc(N)nc3c2)c2c(N)ncnc21 the Tmax was 0.5 h (human, plasma; oral, 20 mg weekly, cycle 1 day 1, median, dose escalation).
With NC(=O)NO the Tmax was 0.833 to 1.17 h (human sickle cell anaemia, whole blood).
The Tmax of COC(=O)c1ccc2c(c1)NC(=O)/C2=C(\Nc1ccc(N(C)C(=O)CN2CCN(C)CC2)cc1)c1ccccc1 is reported as 3.5 h (human, hepatic impairment Child-Pugh B, plasma; oral, 100 mg single dose, median).
The Tmax of COc1ccnc(C[S+]([O-])c2nc3ccc(OC(F)F)cc3[nH]2)c1OC (stereo not drawn) is reported as 4 ± 2.83 h (HPLC; human CYP2C19 intermediate metabolizers, plasma; oral, 40 mg/day, day 1, esomeprazole).
COc1ccnc(C[S+]([O-])c2nc3ccc(OC(F)F)cc3[nH]2)c1OC (stereo not drawn) has a Tmax of 2.3 h (human, obese children with GERD, plasma; oral, 1.2 mg/kg lean body weight, age 6-11 y, single dose; median).
For O=S1(=O)c2ccc(F)cc2Oc2cc(OCC(F)(F)F)ccc21, the Tmax was 0.5 h (human, male, plasma; oral).
With CN1C(=O)[C@@H](NC(=O)c2nnc(Cc3ccccc3)[nH]2)COc2ccccc21 the Tmax was 2 h (human male, plasma; oral, 120 mg twice daily, day 1).
For CCCCCCCOc1ccc(CCC(N)(CO)CO)cc1C(F)(F)F.Cl, the Tmax was 6 to 10 h (healthy human males, plasma; oral, 0.125 to 0.75 mg, day 21, median across doses).
Cn1cncc1[C@@](N)(c1ccc(Cl)cc1)c1ccc2c(c1)c(-c1cccc(Cl)c1)cc(=O)n2C gave a Tmax of 2 h (human, plasma; oral, 1200 mg, day 1).
For C[C@H]1C[C@@H]2[C@H]([C@@H](O)C[C@@]3(C)[C@H]2CC[C@]3(O)C(=O)CO)[C@@]2(C)C=CC(=O)C=C12, the Tmax was 2 h (refers to: total compound; human, plasma; oral, once daily, 32 mg, day 1, median).
With COCCCCn1c(C(=O)N(CC(C)C)[C@@H]2CNC[C@H](C(=O)N3CCOCC3)C2)nc2ccccc21 the Tmax was 2 h (human, elderly, plasma; oral, 80 mg once daily, day 7, median).
For COc1cnc(C(=O)Nc2ccc(F)c([C@]34CN(c5ncc(F)cn5)C[C@H]3CSC(N)=N4)c2)cn1, the Tmax was ~6 h (healthy human subjects, CSF; single dose).
With N[C@]1(C(=O)O)[C@H]2[C@@H](C[C@@H]1F)[C@@H]2C(=O)O the Tmax was 3.5 h (human, both sexes, fed, plasma; oral, 40 mg, day 14, multiple ascending dose).
Cc1[nH]c(/C=C2\C(=O)Nc3ccccc32)c(C)c1CCC(=O)O has a Tmax of 2 ± 0.866 h (human patients; oral, 200 mg/m^2 twice daily, after meal, dose 55).
CC(C)NC[C@@H](C(=O)N1CCN(c2ncnc3c2[C@H](C)C[C@H]3O)CC1)c1ccc(Cl)cc1 has a Tmax of 1 h (human, Severe hepatic function (Child-Pugh), plasma; oral, 100 mg single dose, median).
CC(C)c1nc(CN(C)C(=O)N[C@H](C(=O)N[C@@H](Cc2ccccc2)C[C@H](O)[C@H](Cc2ccccc2)NC(=O)OCc2cncs2)C(C)C)cs1 has a Tmax of 4 h (human, HIV+/HCV+, plasma; oral, total drug, steady state, median, together with: lopinavir/ritonavir twice daily).
For Cc1cnc(N2CC3(CCOCC3)C2)c(C(=O)Nc2ccc(C(=O)N3CCc4cc(C(=O)Nc5c(C)cccc5F)sc4-c4ccccc43)cc2)c1, the Tmax was 0.5 h (human, plasma; inhaled nebulised, 5 mg twice daily repeated, median).
COc1c(N2C[C@@H]3CCCN[C@@H]3C2)c(F)cc2c(=O)c(C(=O)O)cn(C3CC3)c12 gave a Tmax of 1 h (human; oral, 400 mg single dose, median).
The Tmax of C=CC[C@@H]1/C=C(\C)C[C@H](C)C[C@H](OC)[C@H]2O[C@@](O)(C(=O)C(=O)N3CCCC[C@H]3C(=O)O[C@H](/C(C)=C/[C@@H]3CC[C@@H](O)[C@H](OC)C3)[C@H](C)[C@@H](O)CC1=O)[C@H](C)C[C@@H]2OC is reported as 3 h (healthy human subjects, whole blood; oral, 5 mg single dose, median, together with: isavuconazole 200 mg once daily after loading).
For CC(C)[C@H](N)C(=O)NCCCS(=O)(=O)O, the Tmax was 0.629 ± 0.229 h (human, plasma; oral, 340 mg capsule, day 14, fasted, multiple dosing).
For O=C1O[C@H]([C@@H](O)CO)C(O)=C1O, the Tmax was 3 to 3.5 h (refers to: vitamin C; healthy human males, fasting, plasma; oral, 150 mg).
For CC(=O)c1c(C)c2cnc(Nc3ccc(N4CCNCC4)cn3)nc2n(C2CCCC2)c1=O, the Tmax was 5 ± 2 h (human; oral, 95 mg/m^2 single dose, day 1).
With Cc1ccc(NC(=O)c2ccc(CN3CCN(C)CC3)cc2)cc1Nc1nccc(-c2cncc(-c3oncc3C)c2)n1 the Tmax was 5.67 h (older healthy human adults, plasma; oral, 37.5 mg single dose, fed, mean).
For Nc1ccn([C@@H]2O[C@H](CO)[C@@H](O)C2(F)F)c(=O)n1, the Tmax was 0.5 h (LC-MS/MS; human, plasma; intravenous, 750 mg/m2, cycle 1 day 15, median, together with: lonafarnib 150 mg twice daily).
The Tmax of CNC(=O)c1ccccc1Sc1ccc2c(/C=C/c3ccccn3)n[nH]c2c1 is reported as 4.02 h (human, fed, plasma; oral, 10 mg single dose, median).
With CCn1c(=O)c2c(nc(/C=C/c3ccc(OC)c(OC)c3)n2C)n(CC)c1=O the Tmax was 1.9 h (healthy human, plasma; oral, 40 mg single dose, median, together with: rifampin 600 mg/day steady state).
C[C@H]1CNCCCN1S(=O)(=O)c1cccc2cncc(F)c12 has a Tmax of 0.083 h (human, male, plasma; ocular instillation, 1 drop per eye twice daily, day 8, median, together with: brimonidine fixed-dose combination).
The Tmax of COc1cccc(-c2ccc(NC(=O)C3=C(C(=O)O)CCC3)c(F)c2)c1 is reported as 3 to 4 h (male humans, plasma; oral, 30 to 50 mg once daily, day 0, mean profiles).
The Tmax of CCn1c(C(=O)c2cc(C)cc(C#N)c2)c(C(C)C)c(=O)[nH]c1=O is reported as 1.3 h (healthy humans, plasma; oral, 150 mg once daily, 7 days, median).
For CCCC[C@H](NC(C)=O)C(=O)N[C@H]1CC(=O)NCCCC[C@@H](C(=O)O)NC(=O)[C@H](Cc2c[nH]c3ccccc23)NC(=O)[C@H](CCCN=C(N)N)NC(=O)[C@@H](Cc2ccccc2)NC(=O)[C@H](Cc2cnc[nH]2)NC1=O, the Tmax was 0.55 h (human, plasma; subcutaneous, 1.75 mg, second dose).
The Tmax of O=C(Nc1ccc(OC(F)(F)Cl)cc1)c1cnc(N2CC[C@@H](O)C2)c(-c2ccn[nH]2)c1 is reported as 1.99 h (human, plasma; oral, 40 mg twice daily, steady state,, median, together with: repaglinide).
For C=CC(=O)N(C)CCOc1c(N)ncnc1-c1cc(F)cc(NC(=O)c2ccc(C3CC3)cc2F)c1C, the Tmax was < 1.5 h (humans, whole blood; oral, multiple ascending dose).
With CC(C)(C)OC[C@@H]1C(=O)NCCN1C(=O)C[C@H](N)Cc1cc(F)c(F)cc1F the Tmax was 5 h (human; 10 mg once daily, day 10, steady state, median).
CS(=O)(=O)CCNCc1ccc(-c2ccc3ncnc(Nc4ccc(OCc5cccc(F)c5)c(Cl)c4)c3c2)o1 gave a Tmax of 3.5 h (human, plasma; oral, multiple dose).
With O=C(Cc1cccc(OC(F)(F)F)c1)Nc1ccc(CCCCc2nnc(NC(=O)Cc3ccccn3)s2)nn1 the Tmax was 1.54 h (human patients, plasma; oral, 100 mg three times daily fasted, cycle 1 day 15 steady state).
The Tmax of COc1ccc2nc([S@@+]([O-])Cc3ncc(C)c(OC)c3C)[nH]c2c1 is reported as 4.5 ± 0.87 h (HPLC; human CYP2C19 ultra-rapid metabolizers, plasma; oral, 40 mg/day, day 1, pantoprazole).
The Tmax of CC(C)n1cc(C#N)c2cc(-n3cc(C(=O)O)cn3)ccc21 is reported as ~3 h (healthy male humans; oral, single and multiple doses).
